Published values from different studies.
± marks the error that the study gave.

SMILES | test | system | setting | scale | measurement | value
C=C(NC(=O)C(=C)NC(=O)c1csc(C2=NC3c4csc(n4)C4NC(=O)c5csc(n5)C(C(C)(O)C(C)O)NC(=O)C5CSC(=N5)C(=CC)NC(=O)C(C(C)O)NC(=O)c5csc(n5)C3(CC2)NC(=O)C(C)NC(=O)C(=C)NC(=O)CNC(=O)C(C(C)CC)NC2C=Cc3c(C(C)O)cc(nc3C2O)C(=O)OC4C)n1)C(N)=O (stereo not shown) | protein synthesis, coupled transcription-translation, measured: luciferase | Escherichia coli S30 extract | 1 h, 37 °C |  | IC50 | 0.46 ± 0.05 µM
Cc1ccc2c(n1)c(-c1cccc(S(C)(=O)=O)c1)c(C)n2C/C(F)=C/CN | measured: hydroxyproline | male C57BL/6J mice myocardial infarction, heart | oral, 14 mg/kg daily, 28 days | reference: vehicle | collagen content | no effect
O=C(O)/C=C/c1ccc(O)cc1 |  |  | 500 µg/mL |  | DPPH radical scavenging | 76.1 ± 1.2%
CC(C)C[C@@H]1NC(=O)[C@H](C(C)C)NC(=O)[C@H](CO)NC(=O)CNC(=O)CNC(=O)[C@H](CCCNC(=N)N)NC(=O)[C@@H]2CCCN2C(=O)[C@@H](NC(=O)CC[C@H](NC(=O)c2ccc(N(C)Cc3cnc4nc(N)nc(N)c4n3)cc2)C(=O)O)C(C)(C)SSC[C@@H](C(=O)O)NC(=O)CNC(=O)[C@H]([C@@H](C)O)NC(=O)[C@H](C(C)C)NC1=O |  | rat adjuvant arthritis | intravenous, 1 mg/kg once daily, day 14 | reference: arthritis vehicle | liver weight increase suppression | 30%
C[C@@H](O)[C@H](NC(=O)[C@H](CCCCN)NC(=O)COCCN)C(=O)N[C@@H](CCCNC(=N)N)C(=O)NC(C)(C)C(=O)N[C@@H](CCCNC(=N)N)C(=O)NC(C)(C)C(=O)N[C@H](C(=O)N[C@@H](CO)C(=O)N[C@@H](Cc1c[nH]cn1)C(=O)N[C@@H](Cc1ccc(O)cc1)C(=O)NCC(=O)O)[C@@H](C)O | platelet aggregation | human whole blood | together with: collagen I |  | IC50 | 8 µM
C[C@H](NC(=O)[C@H](CCC(N)=O)NC(=O)[C@H](C)NC(=O)[C@H](CCCCN)NC(=O)[C@H](CCC(N)=O)NC(=O)[C@H](C)NC(=O)[C@H](CCCCN)NC(=O)[C@H](CCC(N)=O)NC(=O)[C@H](C)NC(=O)[C@H](CCC(N)=O)NC(=O)[C@H](CCCCN)NC(=O)[C@H](C)NC(=O)[C@H](CCC(N)=O)NC(=O)[C@H](CCCCN)NC(=O)[C@H](C)NC(=O)[C@H](CCC(N)=O)NC(=O)[C@H](C)NC(=O)[C@H](CCCCN)NC(=O)[C@H](CCC(N)=O)NC(=O)[C@H](C)NC(=O)[C@H](CCCCN)NC(=O)[C@H](CO)NC(=O)[C@H](Cc1ccc(O)cc1)NC(=O)CNC(=O)CNC(=O)CN)C(=O)N[C@@H](CCCCN)C(=O)N[C@@H](CCC(N)=O)C(=O)N[C@@H](C)C(=O)N[C@@H](CCCCN)C(=O)N[C@@H](CCC(N)=O)C(=O)O |  | human ALκ4 amyloid extract | 1 h, room temperature | reference: 1 M NaCl over PBS | binding ratio | 0.004
CSCC[C@H](NC(=O)CNC(=O)[C@H](CC(=O)O)NC(=O)[C@@H](NC(=O)[C@@H](NC(=O)[C@@H](NC(=O)CNC(=O)[C@H](CCC(N)=O)NC(=O)[C@H](CCSC)NC(=O)[C@H](CC(=O)O)NC(=O)[C@H](C)NC(=O)[C@H](C)NC(=O)[C@@H](NC(=O)[C@H](CO)NC(=O)[C@@H](N)CC(C)C)[C@@H](C)O)C(C)C)C(C)C)[C@@H](C)O)C(=O)N[C@@H](C)C(=O)N[C@@H](CO)C(=O)NCC(=O)N[C@@H](CC(C)C)C(=O)N[C@@H](CC(=O)O)C(=O)N[C@@H](CCCCN)C(=O)N[C@@H](CC(=O)O)C(=O)N[C@@H](Cc1ccc(O)cc1)C(=O)N[C@@H](CC(C)C)C(=O)N[C@@H](CCCCN)C(=O)N1CCC[C@H]1C(=O)N[C@@H](CC(=O)O)C(=O)N[C@@H](CC(=O)O)C(=O)O |  | p53-positive advanced solid tumour patients | dose not given, three living patients |  | median survival, living patients | 140 weeks
CC(C)C[C@H](NC(=O)[C@H](CC(N)=O)NC(=O)[C@@H](NC(=O)[C@H](Cc1ccccc1)NC(=O)[C@H](CC(C)C)NC(=O)[C@@H]1CCCN1C(=O)[C@H](C)NC(=O)[C@@H](N)Cc1ccccc1)[C@@H](C)O)C(=O)O | intracellular cytokine staining | C57BL/6 mouse, HSV-1 infected, spleen | 0.8 µg/mL, 8 dpi, 6 h stimulation, pulsed fibroblasts |  | IFN-γ+ CD8+ T cells | 1.04%
CC[C@H](C)[C@H](NC(=O)[C@H](CCCCN)NC(=O)CNC(=O)[C@H](CC(C)C)NC(=O)[C@H](Cc1ccccc1)NC(=O)[C@H](CCCCN)NC(=O)[C@H](CO)NC(=O)[C@H](Cc1ccccc1)NC(=O)[C@H](Cc1c[nH]c2ccccc12)NC(=O)[C@H](CCC(N)=O)NC(=O)[C@@H](NC(=O)[C@H](Cc1ccccc1)NC(=O)CCCCCNC(=O)CN1CCN(CC(=O)O)CCN(CC(=O)O)CCN(CC(=O)O)CC1)C(C)C)C(=O)N[C@@H](CCC(=O)O)C(=O)N1CCC[C@H]1C(=O)N[C@@H](CC(=O)O)C(=O)N[C@H](C(=O)N[C@@H](CO)C(=O)N[C@@H](CCC(N)=O)C(=O)N[C@H](C(=O)N[C@@H](CCC(N)=O)C(=O)N[C@@H](CC(=O)O)C(=O)N1CCC[C@H]1C(=O)N[C@@H](CC(N)=O)C(=O)N[C@@H](CC(=O)O)C(=O)N[C@@H](CCC(N)=O)C(=O)N[C@@H](Cc1ccc(O)cc1)C(=O)N[C@@H](CCC(=O)O)C(=O)N1CCC[C@H]1C(=O)N[C@@H](Cc1ccccc1)C(=O)O)C(C)C)C(C)C [copper-64 labelled] |  | mice bearing CT26 tumours | 2 h, together with: anti-PD1 plus anti-CTLA4 | reference: vehicle | increase in tumour uptake | ~50%
COc1ccc([N+](=O)[O-])cc1NC(=O)CCC(=O)[O][Zn][O]C(=O)CCC(=O)Nc1cc([N+](=O)[O-])ccc1OC.c1ccncc1 | ABTS scavenging |  | 500 µg/mL |  | inhibition | 75.4%
CCCCCCCCN(CCC(=O)Nc1ccccc1)C(=O)c1ccccn1 |  | Lmna G609G/G609G mouse | intraperitoneal, 40 mg/kg |  | maximum survival | 194 days
COC[C@@H](NC(C)=O)C(=O)NCc1ccc(OCc2ccc(Cl)cc2)cc1 | maximal electroshock seizure test | mouse | ip, time of peak effect |  | ED50 | 7.2 mg/kg
CN(C)CCN(Cc1ccccc1)C(=O)c1cc(-c2ccc(F)cc2)n2nc(C(C)(C)C)cc2n1 |  | Tg6799 mouse, cortex | dose not given, 4 months | reference: vehicle | Aβ plaque area | no effect
CC[C@H](C)[C@H](NC(=O)[C@@H](NC(=O)[C@H](CC(=O)O)NC(C)=O)[C@@H](C)O)C(=O)N[C@@H](CCCNC(=N)N)C(=O)N[C@@H](CC(C)C)C(=O)N[C@@H](CC(C)C)C(=O)N[C@@H](Cc1ccccc1)C(=O)N[C@@H](CCC(N)=O)C(=O)N[C@@H](CC(C)C)C(=O)N[C@@H](CCSC)C(=O)N[C@@H](CCCNC(=N)N)C(=O)N1CCC[C@H]1C(=O)N1CCC[C@H]1C(=O)N[C@@H](CC(N)=O)C(=O)N[C@@H](CCSC)C(=O)N[C@H](C(=O)N1CCC[C@H]1C(=O)N[C@@H](C)C(=O)N[C@H](C(=O)N[C@@H](CC(N)=O)C(=O)N[C@@H](C)C(N)=O)C(C)C)[C@@H](C)O | measured: HA-23 tetramer | antigen-experienced tetramer+ CD4 T cells, healthy adults, HLA-DRB1*0101 | dose not given |  | α4β7+ CCR9+ cells | 15%
CC[C@H](C)[C@H](NC(=O)[C@H](Cc1ccc(O)cc1)NC(=O)[C@H](CCCCN)NC(=O)[C@H](CCCCN)NC(=O)[C@H](CCC(N)=O)NC(=O)[C@H](C)N)C(=O)N[C@@H](CO)C(=O)N[C@@H](Cc1ccc(O)cc1)C(=O)NCC(=O)N[C@@H](C)C(=O)N[C@@H](CCSC)C(=O)N[C@@H](CCCNC(=N)N)C(=O)N[C@@H](CCCNC(=N)N)C(=O)N[C@@H](CC(N)=O)C(=O)N[C@@H](CO)C(=O)N[C@H](C(=O)N1CCC[C@H]1C(=O)N[C@H]1CSSC[C@@H](C(=O)N[C@@H](CCC(N)=O)C(=O)N[C@@H](CCCNC(=N)N)C(=O)NCC(=O)N[C@@H](C)C(=O)N[C@@H](CCC(N)=O)C(=O)N[C@@H](C)C(=O)N[C@@H](CC(N)=O)C(=O)N2CCC[C@H]2C(=O)N[C@@H](Cc2ccc(O)cc2)C(=O)N[C@@H](CO)C(=O)N[C@@H](CCCNC(=N)N)C(=O)NCC(=O)N[C@H]2CSSC[C@@H](C(=O)N[C@@H](CCCNC(=N)N)C(=O)N[C@@H](CCCNC(=N)N)C(=O)O)NC(=O)[C@H](CCCNC(=N)N)NC(=O)[C@H]([C@@H](C)O)NC(=O)[C@H]([C@@H](C)CC)NC(=O)[C@H]([C@@H](C)O)NC(=O)[C@H](CO)NC2=O)NC(=O)[C@H](CC(N)=O)NC(=O)[C@H](Cc2ccc(O)cc2)NC(=O)[C@H](Cc2ccc(O)cc2)NC(=O)[C@H](CO)NC(=O)[C@H](C)NC(=O)CNC(=O)[C@H](CCCNC(=N)N)NC(=O)[C@H](CCCNC(=N)N)NC(=O)[C@H](CO)NC1=O)C(C)C | FITC/TRITC dextran ratio | Arabidopsis thaliana Col-0, root hairs | 5 µM, 6 min |  | extracellular pH increase | 0.56 pH units
CC(C)[C@H](N)C(=O)N[C@@H](Cc1ccc(O)cc1)C(=O)N[C@@H](CCCCN)C(=O)N[C@H](C(=O)N[C@@H](CCCCN)C(=O)N[C@H](C(=O)N[C@@H](CCCCN)C(=O)N[C@H](C(=O)N[C@@H](CCCCN)C(=O)N[C@H](C(=O)N[C@@H](CCCCN)C(=O)N[C@H](C(=O)N[C@@H](CCCCN)C(=O)N[C@H](C(=O)N[C@@H](CCCCN)C(=O)N[C@H](C(=O)N[C@@H](CCCCN)C(=O)N[C@H](C(=O)O)[C@@H](C)O)C(C)C)[C@@H](C)O)C(C)C)[C@@H](C)O)C(C)C)[C@@H](C)O)C(C)C | binding | AA amyloid mouse liver homogenate | 1 h, room temperature |  | bound fraction | 92%

A few entries again:
SMILES | test | system | setting | scale | measurement | value
COC[C@@H](NC(C)=O)C(=O)NCc1ccc(OCc2ccc(Cl)cc2)cc1 | maximal electroshock seizure test | mouse | ip, time of peak effect |  | ED50 | 7.2 mg/kg
CN(C)CCN(Cc1ccccc1)C(=O)c1cc(-c2ccc(F)cc2)n2nc(C(C)(C)C)cc2n1 |  | Tg6799 mouse, cortex | dose not given, 4 months | reference: vehicle | Aβ plaque area | no effect
